Published values of several laboratories.
Every numbered part comes from another study and shows a few of its results, in no order.

Study 1 — read-out: thermal unfolding; technique: differential scanning fluorimetry; concentration: 5.5 µM; reading: higher = more unfolded
Compound: C[C@@H]1CN(c2ccc(-c3cc(C(=O)NCCOCCOCCOCCOCCOCCOCCNC(=O)/C=C/c4[nH]cc(C(=O)N[C@@H](CC(N)=O)c5ccc(F)c(Cl)c5)c4-c4ccc(Cl)cc4F)ccc3F)cc2NC(=O)c2ccc(F)cc2C(F)(F)F)C[C@H](C)N1C
WDR5: WD repeat-containing protein 5 (WDR5, Homo sapiens, UniProt P61964)
DCAF1: DDB1- and CUL4-associated factor 1 (DCAF1, Homo sapiens, UniProt Q9Y4B6)
Sequence of UniProt Q9Y4B6 (whole entry, looked up): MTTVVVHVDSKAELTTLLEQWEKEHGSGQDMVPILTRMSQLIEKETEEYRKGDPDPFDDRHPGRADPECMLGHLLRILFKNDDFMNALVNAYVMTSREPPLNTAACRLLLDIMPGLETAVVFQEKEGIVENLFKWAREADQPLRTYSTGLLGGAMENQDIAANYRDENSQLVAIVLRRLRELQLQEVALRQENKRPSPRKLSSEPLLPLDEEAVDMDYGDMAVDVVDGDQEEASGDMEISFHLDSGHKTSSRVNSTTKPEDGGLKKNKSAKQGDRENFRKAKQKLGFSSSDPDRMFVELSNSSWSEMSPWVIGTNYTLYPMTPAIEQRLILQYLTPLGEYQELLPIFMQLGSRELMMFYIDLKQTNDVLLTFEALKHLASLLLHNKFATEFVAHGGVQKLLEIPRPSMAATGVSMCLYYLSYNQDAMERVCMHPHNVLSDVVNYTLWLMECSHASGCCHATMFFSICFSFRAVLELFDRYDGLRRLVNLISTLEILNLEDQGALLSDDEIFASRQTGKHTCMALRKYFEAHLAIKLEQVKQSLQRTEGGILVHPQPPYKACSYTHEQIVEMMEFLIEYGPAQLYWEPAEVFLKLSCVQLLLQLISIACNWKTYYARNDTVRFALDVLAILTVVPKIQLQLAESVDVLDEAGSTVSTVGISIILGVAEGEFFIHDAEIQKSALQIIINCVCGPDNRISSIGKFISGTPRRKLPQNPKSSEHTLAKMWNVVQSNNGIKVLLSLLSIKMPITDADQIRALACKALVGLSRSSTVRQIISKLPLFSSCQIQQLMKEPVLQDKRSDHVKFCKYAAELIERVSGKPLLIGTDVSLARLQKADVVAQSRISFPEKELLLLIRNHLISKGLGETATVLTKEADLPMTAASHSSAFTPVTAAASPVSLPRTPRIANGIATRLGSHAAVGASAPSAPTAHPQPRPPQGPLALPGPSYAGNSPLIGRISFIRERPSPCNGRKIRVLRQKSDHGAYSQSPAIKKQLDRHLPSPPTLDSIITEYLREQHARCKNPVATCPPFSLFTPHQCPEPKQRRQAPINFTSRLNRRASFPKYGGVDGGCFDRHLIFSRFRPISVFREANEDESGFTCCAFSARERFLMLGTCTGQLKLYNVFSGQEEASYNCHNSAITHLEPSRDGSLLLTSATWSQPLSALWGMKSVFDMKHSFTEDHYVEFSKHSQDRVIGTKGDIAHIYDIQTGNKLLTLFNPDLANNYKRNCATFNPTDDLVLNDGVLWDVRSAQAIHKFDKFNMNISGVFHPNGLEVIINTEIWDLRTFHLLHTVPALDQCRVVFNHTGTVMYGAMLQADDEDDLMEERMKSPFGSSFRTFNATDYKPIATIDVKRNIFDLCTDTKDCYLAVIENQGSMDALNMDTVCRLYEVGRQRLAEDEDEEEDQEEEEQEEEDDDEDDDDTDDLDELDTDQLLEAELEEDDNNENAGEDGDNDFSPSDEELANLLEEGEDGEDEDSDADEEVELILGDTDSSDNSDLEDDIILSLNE
It gave 56200 a.u. for “SYPRO Orange fluorescence” (WDR5; 76.81 °C).
It gave 14200 a.u. for “SYPRO Orange fluorescence” (WDR5; 40 °C).
It gave 15900 a.u. for “SYPRO Orange fluorescence” (WDR5; 57.01 °C).
The “SYPRO Orange fluorescence” was 52000 a.u. (DCAF1; 66.61 °C).
DCAF1; 52.2 °C — “SYPRO Orange fluorescence”: 20800 a.u.
For DCAF1; 40.8 °C: “SYPRO Orange fluorescence” read 12000 a.u.
For DCAF1; 54.61 °C: “SYPRO Orange fluorescence” read 25900 a.u.

Study 2 — cell line: U-87 MG; concentration: concentration not given; reference: DMSO
Compound: CCN1/C(=C/C=C2\CCCC(/C=C/C3=[N+](CC)c4ccccc4C3(C)C)=C2NCCCCCCCCN2CCC(Nc3nc4ccccc4n3Cc3ccc(F)cc3)CC2)C(C)(C)c2ccccc21
The “log2 fold change” was 1.78 (refers to: NAMPT mRNA).
For refers to: C1QTNF2 mRNA: “log2 fold change” read -2.79.
It gave 1.21 for “log2 fold change” (refers to: EXOC6B mRNA).
refers to: JMY mRNA — “log2 fold change”: 1.57.
It gave -0.828 for “log2 fold change” (refers to: ERMP1 mRNA).
The “log2 fold change” was 0.816 (refers to: PTP4A1 mRNA).
It gave 1.54 for “log2 fold change” (refers to: CNST mRNA).
The “log2 fold change” was -2.12 (refers to: KANK2 mRNA).
For refers to: EIF1 mRNA: “log2 fold change” read 0.913.
refers to: PTTG1 mRNA — “log2 fold change”: -1.11.
The “log2 fold change” was -1.23 (refers to: ABCB10 mRNA).

Study 3
Compound: CCN1CCN(Cc2ccc(COc3c(-c4c(C)c(F)cc5[nH]ncc45)c(C4CC4)cc4c(N5C[C@@H]6C[C@H]5CN6)nc(OC5CCOCC5)nc34)cc2)C(=O)C1
For AsPC-1 (KRAS G12D); ERK1/2 phosphorylation, inhibitor, In-Cell ELISA; 24 h: IC50 read 986 nM.
For A-375 KRAS wild type; ERK1/2 phosphorylation, inhibitor, In-Cell ELISA; 2 h: IC50 read greater than 10000 nM.
It gave 230 nM for IC50 (AsPC-1; cell viability, CellTiter-Glo).
It gave greater than 1000 nM for IC50 (A-375; cell growth or viability, ATP luminescence).
The IC50 was 37.5 nM (AsPC-1 KRAS G12D; ERK1/2 phosphorylation, inhibitor, In-Cell ELISA; 2 h).
The IC50 was 726 nM (AsPC-1 KRAS G12D; ERK1/2 phosphorylation, inhibitor, In-Cell ELISA; 24 h, single experiment).

Study 4 — mode: degrader
Structure (SMILES): Cc1ccc(O)c(C)c1-c1cnc2[nH]c(-c3cnc(N4CCC5(CC4)CC(N4CCN(c6ccc(NC7CCC(=O)NC7=O)cc6F)CC4)CO5)nc3)cc2c1C#N (stereo not drawn)
Target: Membrane-associated tyrosine- and threonine-specific cdc2-inhibitory kinase (PKMYT1, Homo sapiens, UniProt Q99640)
Sequence of UniProt Q99640 (whole entry, looked up): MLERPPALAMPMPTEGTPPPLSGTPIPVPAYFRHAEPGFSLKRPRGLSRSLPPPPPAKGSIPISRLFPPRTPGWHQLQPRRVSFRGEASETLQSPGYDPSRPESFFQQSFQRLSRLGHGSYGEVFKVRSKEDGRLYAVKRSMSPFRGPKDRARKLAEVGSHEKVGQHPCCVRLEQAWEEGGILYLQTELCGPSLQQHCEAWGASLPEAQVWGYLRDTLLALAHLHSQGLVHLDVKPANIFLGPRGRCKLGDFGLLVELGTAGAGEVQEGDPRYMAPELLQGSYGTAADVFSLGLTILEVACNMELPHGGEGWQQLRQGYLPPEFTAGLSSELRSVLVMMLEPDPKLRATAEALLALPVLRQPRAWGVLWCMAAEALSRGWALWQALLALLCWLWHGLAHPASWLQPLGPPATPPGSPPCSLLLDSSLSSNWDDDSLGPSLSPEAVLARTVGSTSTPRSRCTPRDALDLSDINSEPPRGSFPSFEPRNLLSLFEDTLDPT
protein level; HCC1599 — Dmax: 79%.
refers to: PKMYT1 protein; HuCCT-1 — Dmax: 83%.
The Dmax was 75% (protein level; MDA-MB-157).

Some of these lines once more (study 1):
The “SYPRO Orange fluorescence” was 52000 a.u. (DCAF1; 66.61 °C).
DCAF1; 52.2 °C — “SYPRO Orange fluorescence”: 20800 a.u.
For DCAF1; 40.8 °C: “SYPRO Orange fluorescence” read 12000 a.u.
For DCAF1; 54.61 °C: “SYPRO Orange fluorescence” read 25900 a.u.
